Published values gathered from unrelated publications.
Parts stem from different laboratories: compare values within a part only.

Study 1
Target: Sal-like protein 4, full length isoform A (SALL4, Homo sapiens, UniProt Q9UJQ4, residues 1-1053)
Sequence of UniProt Q9UJQ4 (whole entry, looked up): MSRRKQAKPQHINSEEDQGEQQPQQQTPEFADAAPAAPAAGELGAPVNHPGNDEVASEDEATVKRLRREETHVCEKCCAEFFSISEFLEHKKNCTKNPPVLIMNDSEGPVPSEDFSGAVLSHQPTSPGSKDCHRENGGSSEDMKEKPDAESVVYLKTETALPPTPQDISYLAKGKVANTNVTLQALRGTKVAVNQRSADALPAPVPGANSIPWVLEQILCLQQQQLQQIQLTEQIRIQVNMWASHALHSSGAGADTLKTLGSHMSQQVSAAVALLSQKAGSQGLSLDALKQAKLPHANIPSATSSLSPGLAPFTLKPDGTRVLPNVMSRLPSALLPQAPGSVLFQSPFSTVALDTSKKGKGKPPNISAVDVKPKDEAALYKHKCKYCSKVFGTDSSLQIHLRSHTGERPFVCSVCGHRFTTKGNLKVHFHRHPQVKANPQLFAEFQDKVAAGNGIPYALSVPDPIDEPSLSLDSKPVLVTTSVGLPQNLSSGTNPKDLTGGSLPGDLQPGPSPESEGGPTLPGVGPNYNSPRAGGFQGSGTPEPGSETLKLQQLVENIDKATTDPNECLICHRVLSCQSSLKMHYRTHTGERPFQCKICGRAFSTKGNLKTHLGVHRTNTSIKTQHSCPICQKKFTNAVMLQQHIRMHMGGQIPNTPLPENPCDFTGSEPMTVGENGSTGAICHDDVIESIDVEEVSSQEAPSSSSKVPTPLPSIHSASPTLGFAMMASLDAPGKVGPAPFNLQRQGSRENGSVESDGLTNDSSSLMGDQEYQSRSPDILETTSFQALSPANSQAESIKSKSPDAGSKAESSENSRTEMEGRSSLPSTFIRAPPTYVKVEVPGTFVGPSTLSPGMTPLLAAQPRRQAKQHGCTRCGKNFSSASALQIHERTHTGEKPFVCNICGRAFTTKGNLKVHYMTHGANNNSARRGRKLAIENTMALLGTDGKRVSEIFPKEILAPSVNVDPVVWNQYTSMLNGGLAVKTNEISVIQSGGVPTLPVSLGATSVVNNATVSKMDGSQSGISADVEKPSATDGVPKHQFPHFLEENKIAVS
Method: universal PBM
Form: double-stranded DNA, one strand shown
Medium: in vitro
Tested at: 600 nM
Notes: 8-mer, flanks averaged, mean of replicates
Reading: higher = stronger binding
Measurement: E-score
AAGACACC: -0.133
AATTATGA: 0.447
AGAAACGC: -0.12
AGTGATAA: 0.259
ACAGTCTA: 0.0608
ATGACCGC: -0.2
CAAAGGCC: -0.266
GTCAGGTA: -0.0664

Study 2
Target: Replicase polyprotein 1ab, nsp13 helicase (rep, Severe acute respiratory syndrome coronavirus 2, UniProt P0DTD1)
Mode: inhibitor
Tested at: 20 µM
Measurement: inhibition
CN1CCN(C(=O)c2cc3cc(Cl)ccc3[nH]2)CC1: 2.85%
CC(C)CC(N)C1(c2ccc(Cl)cc2)CCC1 (stereo not shown): -3.34%
CC(=O)NNC(=O)N1Cc2ccccc2Oc2ccc(Cl)cc21: 3.31%
CCN(CC)CCOc1ccc2c(c1)C(=O)c1cc(OCCN(CC)CC)ccc1-2: 64%
O=C(O)CNC(=O)C(CS)Cc1ccccc1 (stereo not shown): -2.3%
CCN(CC)C(=O)Nc1ccc(OCC(O)CNC(C)(C)C)c(C(C)=O)c1 (stereo not shown): 6.43%
CC(C)[C@H](NS(=O)(=O)c1ccc(-c2ccc(Br)cc2)cc1)C(=O)O: 0.24%
c1ccc2c(c1)sc1ccccc12: 2.98%
Clc1ccc2c(NCCNc3ccnc4cc(Cl)ccc34)ccnc2c1: 4.17%
CC(C)NCCN(C(C)C)S(=O)(=O)c1ccc(Cl)cc1Cl: 2.33%
CC(C)C[C@H](NC(=O)CNC(=O)c1cc(Cl)ccc1Cl)B1OC(=O)C(CC(=O)O)(CC(=O)O)O1: 1.49%
CN(C)CCN1C(=O)c2cccc3cc(NC(N)=O)cc(c23)C1=O: 21.5%
Oc1c(Br)cc(Br)c2cccnc12: -4.33%
CCCCCCCCCCCC(=O)OCC(O)CO (stereo not shown): 0.61%
COC(=O)/C=C/C(=O)OCCN1C(=O)CCC1=O: 4.09%
CC(=O)OCC1=C(C(=O)O)N2C(=O)[C@@H](NC(=O)CCCC(N)C(=O)O)C2SC1 (stereo partly shown): -4.4%
CCCCCOc1ccc(-c2ccc(-c3ccc(C(=O)N[C@H]4C[C@@H](O)[C@@H](O)NC(=O)[C@@H]5[C@@H](O)[C@@H](C)CN5C(=O)[C@H]([C@@H](C)O)NC(=O)[C@H]([C@H](O)[C@@H](O)c5ccc(O)cc5)NC(=O)[C@@H]5C[C@@H](O)CN5C(=O)[C@H]([C@@H](C)O)NC4=O)cc3)cc2)cc1: 7.43%
C=CCc1ccc(O)c(-c2cc(CC=C)ccc2O)c1: 4.91%
COc1ccc2cc(C(C)C(=O)Oc3ccc(C(N)=S)cc3)ccc2c1 (stereo not shown): 10.6%
C#CCN(C)Cc1ccccc1: 1.11%
CC[C@H](CO)Nc1nc(Nc2cccc(-c3ccccn3)c2)c2ncn(C(C)C)c2n1: 11%
CCOC(=O)c1c(C)[nH]c2ccc3c(c12)CN1CCc2cc(OC)ccc2C1O3 (stereo not shown): 15.1%
CN/C(=N\CCSCc1nc[nH]c1C)NC#N: -4.66%
CC(C)CC(N)=O: -5.84%
N[C@@H](COP(=O)(O)O)C(=O)O: 5.39%

Study 3
Target: RNA binding protein fox-1 homolog 2, RRM domain, GST-SBP tag (RBFOX2, Homo sapiens, UniProt O43251-10, residues 100-194)
Method: RNA Bind-n-Seq
Form: RNA
Medium: in vitro
Tested at: 365 nM
Notes: natural RNA segment, single round, ends assumed
Reference: no-protein control
Reading: higher = stronger binding
Measurement: RBNS enrichment (R)
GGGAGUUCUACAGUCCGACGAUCAUUUGGUACUCAGAAAAGAACUGUUUAUACCACUCACCUUUCUCCCAGCAUGUACUCACUGUGGGCAGAUGCACCAAUACAUGGUAAUCCUCUUACUCAUUUUAAGACGUUGGAAUUCUCGGGUGCCAA: 4.73
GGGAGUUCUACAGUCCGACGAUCUAUGUUCCCACUCCUCCUGUGUUAAUAACAUUGCUUUCAUCUUGGAUAUUUUUUUUCUACUUUGUUAACCUACUUUAUGCUUUAUCUCAAUAAAAUGCUUACCAAGGGAAUGGAAUUCUCGGGUGCCAA: 0.79
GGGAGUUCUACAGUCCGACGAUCCUACCCCACCCUCUCGCCCCUGGCACCUGUCUUCUAUUUGUCGAGUUCACUGUUGAUCCUGUUGUAGGUGGUUGGGCUGCUGGUCACCAUGCCACCACUUGGGUUUUUUCUGGAAUUCUCGGGUGCCAA: 0.889
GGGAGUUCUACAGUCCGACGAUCAGGGCCAGAUUUUCAGCAGCCAAGGACAUCCAUACCCAAGUGAAUGUGAUGGGGCUUCAAGACGUGAACUGAGACAAUUCACUCUGGCUGUUUGAACAGCAGCGUUUCAUUGGAAUUCUCGGGUGCCAA: 0.642
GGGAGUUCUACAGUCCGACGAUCUGACAGCGGUAGCAGCUACCUAUUCAAGACGCCUCACACAAAAUCUGCCUUAGAAAGUUAAUAUAUUUUAAAUUAUUUUAAAAGAAACUCAACAUCUUAUUCUUUGGCCUUGGAAUUCUCGGGUGCCAA: 0.413
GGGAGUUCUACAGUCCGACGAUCCAUCAUGGGUCCUGAUGGUUUCCCGUUUUCAUGGUAACAAAUUCGCACAGAGGUUUUGCUUUAUGCUGUAGAAUACCGACUUUCAUGAUGACAACUUGGUUUAUGCAUGAUGGAAUUCUCGGGUGCCAA: 2.72
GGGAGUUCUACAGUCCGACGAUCGCAUGAUGCCUUUUUGGGGGCUGGGGAUUGAGUCUUGCUGCUCUGCCCAGCCCUGUUCUAUUCUGCAGGGUCCCUGUGUUGGAAUUCUCCCUGGGGAACCUACUUUCUGCUGGAAUUCUCGGGUGCCAA: 4.05
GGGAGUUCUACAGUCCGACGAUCCCUUUAGUUCGGGGUUAGCUCCCAGAACUGCCCUGCACCAUAAGCUGGUGAUUCUCCAUGCCUGUCCUUACCCCGGAUCUGGCUAUUCCCGUGAUGCCAUUUGGAGGGGAUGGAAUUCUCGGGUGCCAA: 1.36

Study 4
Target: Histone acetyltransferase KAT6A, winged helix 2, GST fusion (KAT6A, Homo sapiens, UniProt Q92794, residues 85-181)
Method: protein binding microarray
Form: double-stranded DNA, one strand shown
Medium: in vitro
Tested at: not given
Notes: 8-mer, flanks averaged, mean of 2 arrays, mostly near background
Reference: not given
Reading: higher = stronger binding
Measurement: E-score
Residues (chain): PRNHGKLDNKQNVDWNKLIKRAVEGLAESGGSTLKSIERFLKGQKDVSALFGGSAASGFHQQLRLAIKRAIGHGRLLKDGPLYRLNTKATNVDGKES
CGCTTTAA: 0.161
TAAGGAGA: -0.058
AAAAGCGT: -0.0581
GGGTGTCA: 0.0117
AGCTACTA: 0.00273
ATGTGCAC: -0.244
CAGAGACG: 0.0618
TGAACACA: -0.0409

Study 5
Cell line: HEK-293T/ACE2
Tested at: concentration not given
Time: 16 (unit not given)
Reference: vehicle
Measurement: viability
CCCCNc1cc(C(=O)O)cc(S(N)(=O)=O)c1Oc1ccccc1: 99.8%
COCCOC(=O)C1=C(C)NC(C)=C(C(=O)OC(C)C)C1c1cccc([N+](=O)[O-])c1 (stereo not shown): 105%
COC(=O)[C@@H]1CC2=CC(=O)CC[C@]2(C)[C@@]23O[C@@H]2C[C@@]2(C)[C@@H](CC[C@@]24CCC(=O)O4)[C@H]13: 102%

Some of these lines once more (study 2):
O=C(O)CNC(=O)C(CS)Cc1ccccc1 (stereo not shown): -2.3%
CCN(CC)C(=O)Nc1ccc(OCC(O)CNC(C)(C)C)c(C(C)=O)c1 (stereo not shown): 6.43%
CC(C)[C@H](NS(=O)(=O)c1ccc(-c2ccc(Br)cc2)cc1)C(=O)O: 0.24%
c1ccc2c(c1)sc1ccccc12: 2.98%
Clc1ccc2c(NCCNc3ccnc4cc(Cl)ccc34)ccnc2c1: 4.17%
CC(C)NCCN(C(C)C)S(=O)(=O)c1ccc(Cl)cc1Cl: 2.33%
CC(C)C[C@H](NC(=O)CNC(=O)c1cc(Cl)ccc1Cl)B1OC(=O)C(CC(=O)O)(CC(=O)O)O1: 1.49%
CN(C)CCN1C(=O)c2cccc3cc(NC(N)=O)cc(c23)C1=O: 21.5%
Oc1c(Br)cc(Br)c2cccnc12: -4.33%
